Measured values of several laboratories.
Every numbered part comes from another study and shows a few of its results, in no order. Positions count from the first letter of the parent shown.

Series 1
Target: ABI1, truncated, D143A, DHFR fusion (Arabidopsis thaliana, UniProt P49597)
Method: DHFR PCA, dose-response
Sample: yeast
Setting: Hill fit, mean, not affinity
Together with: (+)-ABA, dose series
Direction: lower = more sensitive
Quantity: ABA EC50
Parent: PYL1, truncated, DHFR fusion (Arabidopsis thaliana, UniProt Q8VZS8); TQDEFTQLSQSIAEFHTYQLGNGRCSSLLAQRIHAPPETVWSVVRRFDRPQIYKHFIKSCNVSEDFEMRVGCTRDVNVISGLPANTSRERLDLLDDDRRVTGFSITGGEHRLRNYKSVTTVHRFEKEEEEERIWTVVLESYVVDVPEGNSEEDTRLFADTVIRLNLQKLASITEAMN
V143T: 7.91 µM
S140T: 667 µM
V40T: 184 µM
T119R: 738 µM
E64N: 2.49 µM
R98M: 6.75 µM
K58C: 18.9 µM
L29C: 10.1 µM

Series 2
Target: Histone acetyltransferase KAT6A, winged helix 1, GST fusion (KAT6A, Homo sapiens, UniProt Q92794, residues 1-85)
Method: protein binding microarray
Form: double-stranded DNA, one strand shown
Sample: in vitro
Concentration: not given
Setting: 8-mer, flanks averaged, mean of 2 arrays, mostly near background
Relative to: not given
Direction: higher = stronger binding
Quantity: E-score
Residues (chain): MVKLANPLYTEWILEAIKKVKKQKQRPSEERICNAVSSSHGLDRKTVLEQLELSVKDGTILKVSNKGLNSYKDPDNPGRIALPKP
AAAGGTCG: -0.116
CCATGGTA: -0.142
ACCAACGT: -0.0713
ACGCACGC: 0.262
AGCGACTA: -0.0915
CATCCACA: -0.27
GTCCGAAC: 0.175
CTCACTGC: -0.0995

Series 3
Target: RNA binding protein fox-1 homolog 2, RRM domain, GST-SBP tag (RBFOX2, Homo sapiens, UniProt O43251-10, residues 100-194)
Method: RNA Bind-n-Seq
Form: RNA
Sample: in vitro
Concentration: 365 nM
Setting: natural RNA segment, single round, ends assumed
Relative to: no-protein control
Direction: higher = stronger binding
Quantity: RBNS enrichment (R)
Construct (chain): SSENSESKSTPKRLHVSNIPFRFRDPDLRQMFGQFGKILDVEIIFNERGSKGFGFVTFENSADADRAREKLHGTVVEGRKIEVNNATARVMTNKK
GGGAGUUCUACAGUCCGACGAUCUUUAAGGCAGUUCCGUUAAGGGUUUUUGUUUUUAAACUUUUUUUUGCCAUCCAUCCUGUGCAAUAUGCCGUGUAGAAUAUUUGUCUUAAAAUUCAAGGCCACAAAAACAAUGGAAUUCUCGGGUGCCAA: 0.443
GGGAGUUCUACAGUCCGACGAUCCAUUGAGACUUAGUGACCAUCUGGGUCCAUGUUAAUAUCAUAUAAUAGCAAAUUCCUUUCAGAAGUCUCUAGCUUUAGUGCUAAAAUACUACUGAGAAAGGAACUAGGUAUGGAAUUCUCGGGUGCCAA: 0.32
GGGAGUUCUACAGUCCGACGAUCUAGUUUGUUAAUAUGUAUAAUUUAGCAUCUAUUACACUCAUGUAAAUAUGGAGUAAGUAUUGUAAACUAUUUCAUCGCGGGGAUUGUGGGUGUUAUACAUACAUUUAGGAUGGAAUUCUCGGGUGCCAA: 0.884
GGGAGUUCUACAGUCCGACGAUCCGUGUGGACCGCCAGGCCCUCUCAGUCCAUUUUCCGGGGCUGCUCGGUGCUGCUGUUAAGACGUGAGUGCAUUUCACUUGGAAGAACCCAUUGUACAAAGUUCAAGGCUAUGGAAUUCUCGGGUGCCAA: 0.27
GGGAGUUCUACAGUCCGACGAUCUCAGCCUCUGGGAAACCACAGCAGUGAUGCCAGCUGGGCACGUCAGGACCUCCCCACACACCCACACGAUGCCACAGGUCAGGGGGCUGUGCCUGACUAGGGAGCCCUCCUGGAAUUCUCGGGUGCCAA: 0.246
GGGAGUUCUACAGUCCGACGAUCGUUUAACUACAGAUGACUUCUGUUGUAGACUCACAAGUUUAACUGUUGUAUUAUAACAGUAUUACAUGUCAACGGUGUGGUUAUGACCUUUAUUUAUAUAAAAACCAAAUUGGAAUUCUCGGGUGCCAA: 0.423
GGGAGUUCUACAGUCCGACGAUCUGUGGGCCAGUGUCGUGUGGCCUGGAGACCAUCAGGAGUCUGCACACCCACCACUUACUUGUGCCAGAAACUCUGGAGGCACCCACACCUCCCACCUGUUCAGGUUGUGGUGGAAUUCUCGGGUGCCAA: 0.316
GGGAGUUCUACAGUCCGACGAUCGGGUUACAGGUGAUCGCUGGUCUCCUGCCUCCACCCCCUGAGUGCUGGGGUUACAGGUGUGAUCACCUUGCUGGCUUGUGAGGUGCUGGGGACAACCCAGGGCUUCGUGCUGGAAUUCUCGGGUGCCAA: 0.257

Mixed results
Parent: viral docking peptide; KGVKRKLFAEDSS
V3Y — normalised enrichment score (CCNF, cyclin fold, Cln2 fusion (human); yeast growth competition, sequencing; yeast; strong parent motif; relative to: not given, higher = stronger binding): 5.22

A few entries again (series 2):
ACCAACGT: -0.0713
CCATGGTA: -0.142
